Results collected from several papers.
A part holds a random share of what one study measured.

Series 1 — method: RNA Bind-n-Seq; molecule type: RNA; matrix: in vitro; concentration: 365 nM; baseline: no-protein control; reading: higher = stronger binding
Target: RNA binding protein fox-1 homolog 2, RRM domain, GST-SBP tag (RBFOX2, Homo sapiens, UniProt O43251-10, residues 100-194)
Setting: natural RNA segment, single round, ends assumed
Constant ends, left off below: GGGAGUUCUACAGUCCGACGAUC … UGGAAUUCUCGGGUGCCAA
Target sequence (chain): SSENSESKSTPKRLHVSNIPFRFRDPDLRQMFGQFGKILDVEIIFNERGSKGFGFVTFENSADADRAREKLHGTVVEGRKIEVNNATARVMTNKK
Strand	RBNS enrichment (R)
ACCAAUGGAAAACGGGGUUGGCCGUGGGAGAUGGGAUGAAGCGUUUACGUGAUUUUGGCGCACCCUGUAUACAUUUCAGAACUCCUGAUGGUAACGUGUCUGGAGUGUGG	0.507
UUUCUUCUCCCAAUGCCUCUUGCUGGAAGCACUCUAUACCUCUCCACCUCCCUGGACUACUAAGCUGGAGACCUACUGGCCACAUGUCUGAAAAAAUGUUCCCUGGCUAG	0.793
AUUUUAUUGGUGAUGAUGAAUGGGAAUGAAAUCAGGGGGCUGUCUACUAGAGCCUGGAAUAAAUAUGCUGCUUUGUGGAUUUUUAAGCCCUUCUCUUCUGUUUCCUUGAG	0.512
GAAUUUUAGUCUGUUUUAGAGGUCAGUAAAUAAAAUACAAGCAUCCUGGUUUUGUUGAAGUUUUGGAUUUCUUGUAUAGGUUUCUUUUGUUUCCUUCUCUUUGUUUAGCU	1.37
CAUUCCUGCCUUUCCUGGGAAGGGCCUGGCCCUGAUCUAGAGUCUUAGCUAAGGAGCUGAGAAACAGCCACAGUACUCCCUUCUCUUCGCGCACAGGGCCCUCUCUCUUA	0.334
UCCUUGCACCUGCAUCCGUAGUUCCCUGAAAACCCAGAGAGGAAUCAGACUUCACACUGCAAGAGCCUUGGUGUCCACCUGGCCCCAUGUCUCUCAGAAUUCUUCAGGUG	0.787
UUAAGUAUUUAAAUUAUGAAAGAAUAAUGCAGACUUUUUAUUGUUUCUUAACUGACUAGAAAGAGCCACCAGCAUUACUCUGUGCCUUUUGGACAUCAGUUUGUGUGUUC	0.44
CACUCUAGUGUGAAGUCCUCUUCUAGGGUAUCCUGGUGACUGUGGCUAGCCAAGGGGCCACUUCUUGGUAGGAAGGUAUGACAGAGUACUUUCCCAAGUUCCUCACGAGG	0.277
AGGUGAGAGUAUUUAUUUUUGGUAUGGCUGGCUCACUGCACAGACUCUGUGUUUAUGUGUGUGUGUCUGUGUGAGAGAAGAAAAAUCUGUAGAGAAGAGGCACGCUUAUG	2.09
CUCUCUGUAUUUUUUCUUGCAUUGACAUUAUAGACAUUGAGGACCUCAUCCAAACAAUUUAAAAAUGAGUGUGAAGGGGGAACAAGUCAAAAUAUUUUUAAAAGAUCUUC	0.762
ACUAACCCCACUCCCAUGAAGAAUUGCCUGGAAAGAUGUUUUCAAGGAAUUUGAACCAUAAAACACUAUCUGAUGCACAGAACACCUCUACUUUGAGACUCACCUCUCAU	0.625
GUCCUCCUGCCUGCCUGAAGGUCUCCCAUGAAAACACUGCUGAACUGUGUUGACACUCAUGACCCUUUUUUUAAACCGUUAAAGGGAAGUUCGGUGUUGGAGCGAUACUC	0.847

Series 2 — method: protein binding microarray; molecule type: double-stranded DNA, one strand shown; matrix: in vitro; concentration: not given; baseline: not given; reading: higher = stronger binding
Target: Histone acetyltransferase KAT6A, both winged helices, GST fusion (KAT6A, Homo sapiens, UniProt Q92794, residues 1-181)
Setting: 8-mer, flanks averaged, mean of 2 arrays, mostly near background
Residues (chain): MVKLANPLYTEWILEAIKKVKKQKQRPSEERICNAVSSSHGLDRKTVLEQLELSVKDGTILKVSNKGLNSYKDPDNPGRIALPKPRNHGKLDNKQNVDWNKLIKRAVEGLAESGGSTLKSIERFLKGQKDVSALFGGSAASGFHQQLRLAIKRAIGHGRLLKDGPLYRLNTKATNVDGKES
Strand	E-score
ACCTAGCG	0.255
CTTCGTGA	0.011
AGGGGGCC	-0.0984
ACGGTTCT	0.0417
CTCAATTC	-0.175
AACTTTGA	-0.0391
CGATTCTC	0.0282
AGCCCCCT	-0.279
ATGGCGGA	0.146
CCCATAGC	-0.135
ACGTTGAT	-0.0815
GTCCCGCA	0.275
CTACAAGA	-0.195
ACACGTAA	-0.0501
ACCGGGTC	0.223
CATGGCAG	-0.0508
AAGCCCTG	-0.0919
AAGCATTG	-0.156
CGAAAAGA	-0.056
CAACGCCA	-0.0445
TGATAGAA	-0.205
ATTGCACA	-0.211
GGTGGGGA	-0.163
ACCGACCG	0.199
GAAGAGCC	0.101

Series 3 — method: universal PBM; molecule type: double-stranded DNA, one strand shown; matrix: in vitro; concentration: not given; reading: higher = stronger binding
Target: Sal-like protein 4, full length isoform B (SALL4, Homo sapiens, UniProt Q9UJQ4-2, residues 1-616)
Setting: 8-mer, flanks averaged, mean of replicates
Strand	E-score
GGGCGTGA	-0.239
AAGGACGG	-0.195
CGATAAAA	0.256
CATTTTAA	0.268
AACAGTCA	-0.0108
TCTGAAGA	-0.0774
GCTCCCAC	-0.292
GCTTAGAC	-0.142
GAATGATA	0.307
AACTGCGT	-0.084
ACGGTTAT	0.141
TGTGAAAA	0.195
GCTTTTGA	-0.0968
CAAGCCGC	-0.331
AGGCGACC	-0.246
ACCGTTTA	0.0892
CGTTAGAA	0.121
GCAGGGCC	-0.381
CTTTTAGC	-0.0738
CCGTTTAA	0.045
AATGTTCT	0.123
AATTCGGA	0.0386

Series 4 — method: protein-binding microarray; molecule type: double-stranded DNA, one strand shown; matrix: in vitro; concentration: 2200 nM top; setting: 60-bp whole probe; added: salmon DNA 0.4 mg/ml; baseline: random background probes; reading: higher = stronger binding; constant ends, left off below: GCCTAGCAC … GTCTTGATTCGCTTGACGCTGCTG
Target: Interferon regulatory factor 7, full length, phosphomimetic (IRF7, Homo sapiens, UniProt Q92985, residues 1-503, S471D/S472D/S475D/S476D/S477D/S483D/S484D/S487D)
Construct (chain): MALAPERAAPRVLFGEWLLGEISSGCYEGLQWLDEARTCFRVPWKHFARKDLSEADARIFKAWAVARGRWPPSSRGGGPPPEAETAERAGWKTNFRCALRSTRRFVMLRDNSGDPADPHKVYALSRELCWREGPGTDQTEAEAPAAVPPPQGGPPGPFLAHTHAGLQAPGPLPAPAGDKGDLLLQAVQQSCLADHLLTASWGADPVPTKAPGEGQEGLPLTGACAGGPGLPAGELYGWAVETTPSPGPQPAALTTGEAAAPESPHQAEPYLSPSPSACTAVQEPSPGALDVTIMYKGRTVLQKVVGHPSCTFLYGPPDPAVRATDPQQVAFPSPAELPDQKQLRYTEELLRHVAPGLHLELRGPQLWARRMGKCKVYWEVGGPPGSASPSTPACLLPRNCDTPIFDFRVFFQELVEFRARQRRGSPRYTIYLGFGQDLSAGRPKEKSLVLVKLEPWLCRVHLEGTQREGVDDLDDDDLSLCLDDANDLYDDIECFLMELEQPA
Strand	fitted relative affinity
TTAGGTATCCTTATCCGTTAGTGCTAG	0.809 z-score
CTAATATTGAGACTCATGGGGTGCTAG	-0.156 z-score
GACTGTCTCCTTTTCCTGACGTGCTAG	1.84 z-score
TTAGATCTTAGTTTCGATTAGTGCTAG	6.64 z-score
CACTTTTCCTACATCAGCTGGTGCTAG	2.76 z-score
TCACTTCTGGTCTTCTGACTGTGCTAG	2.17 z-score
GACGATTCCAGTTTCGATACGTGCTAG	5.72 z-score
TTGACTCTTTCTGTCAGTTTGTGCTAG	1.52 z-score
TCAGGTTCCGGTTTCGGTTAGTGCTAG	9.2 z-score
GCCGGTATCGGGACTGGGGACGTGCTA	-0.31 z-score
GACTGACTGGGGTATCGGGACGTGCTA	-0.574 z-score
GACGGTACCGGACTGGGGACGTGCTAG	-0.573 z-score
TTAGGTTTCTACTTTCGGTTAGTGCTA	10.9 z-score
TTCGGTCTCGGTCTCGGTTAGTGCTAG	1.56 z-score
TTTTTTTTTTTTGTATTTTTGTGCTAG	2.63 z-score
TTCTCTTTCATTGCTGCCCTGTGCTAG	2.66 z-score
GACAGTTCCCTTTTCCTGACGTGCTAG	3.02 z-score
GACGGTTCCCTTTTCATGACGTGCTAG	2.19 z-score
TTAGCTATCCTTCTCCTTTAGTGCTAG	1.43 z-score
TTAGGTCTCGGTTTTGGTTAGTGCTAG	2.5 z-score
CAACTTTTTTTAATTGAGAAGTGCTAG	-0.244 z-score
GACGAACAGGGGACTGGAGACGTGCTA	-0.0211 z-score
GACGATTTCAGTACCGAGACGTGCTAG	0.692 z-score
GGCGGTTTCGGGTATCGGGACGTGCTA	6.03 z-score
TCAGATCTCAGTATCGATTAGTGCTAG	0.516 z-score
